Measured values pooled from the literature.
Numbered parts are unrelated; each lists some results of a single study.

Set 1
Target: RING finger protein unkempt homolog, zinc fingers 1-6, GST-SBP tag (UNK, Homo sapiens, UniProt Q9C0B0, residues 30-357)
UniProt Q9C0B0, sequence (30-357, looked up): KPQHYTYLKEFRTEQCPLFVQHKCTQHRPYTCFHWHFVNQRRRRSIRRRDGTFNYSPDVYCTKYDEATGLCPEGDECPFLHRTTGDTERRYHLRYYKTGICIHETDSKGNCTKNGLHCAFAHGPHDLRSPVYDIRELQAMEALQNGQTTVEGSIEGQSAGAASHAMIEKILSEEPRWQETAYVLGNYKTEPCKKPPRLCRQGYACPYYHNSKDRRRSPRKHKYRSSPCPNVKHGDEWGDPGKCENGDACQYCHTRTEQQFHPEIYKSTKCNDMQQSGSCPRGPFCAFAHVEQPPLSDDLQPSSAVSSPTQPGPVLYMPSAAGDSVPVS
Technique: RNA Bind-n-Seq
Molecule type: RNA
Medium: in vitro
Tested at: not given
Notes: RNA with constant flanks, human and mouse sites, ends assumed
Reference: input RNA pool
Reading: higher = stronger binding
Measurement: bound/input enrichment
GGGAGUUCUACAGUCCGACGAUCGGUUUAGGGUAGGGGUUAAUCUGUUGGGGGUUGAUGUGUUUAGCAAGAAGCUACUCCUAGCUUUUGCUAAAAUAUGGUUGGCACUGCCUCUUGUGGCACAGGCCAUAAUUGUUCCAUAGACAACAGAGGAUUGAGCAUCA: 1.21 ratio
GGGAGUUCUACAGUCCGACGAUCAAAAUAAACAGAAUAGACCAUGACCGGAGAGCGAUGGCUACUUUAUUGAGUAAAUUCCGGAUAGACUUCUCUGAUAUCAUGGUCCUUGGAGAUAUCAACACCAAGCCAAAAAAAGAAAAUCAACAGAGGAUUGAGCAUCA: 0.264 ratio
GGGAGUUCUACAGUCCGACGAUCGCGGCCUCAUUGCUACGAUUUCAGAGUACCCUGGUAAUAGCUGAGCAUGCAAAUGAUUCCCUAGCACCCAUUACUUUAAAUACCAUUACUGCAGCCACACGCCUUGGAGGUGAAGUGUCCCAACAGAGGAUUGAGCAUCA: 2.17 ratio
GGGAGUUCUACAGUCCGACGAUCCUGAACAGUAUUUUGCAACAUGCAAAAGAUUUUAAGGAAUAUCAUCGGUCUGUGGCCGGAAAGAUCCAGAAGCUCUCCAAAGCAGUGGCAACUUGGCAUGCCAACACUGAAAGAGAGCAGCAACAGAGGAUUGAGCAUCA: 0.108 ratio
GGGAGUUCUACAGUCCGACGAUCUGUCCCGAGUACUGAAAUUGCAGCAGACACCUUCAUGCCUUGCCCAGGCUUCUAGUCUUUUCCUCCUUCUGGUAAUGACUACUUCUUUUUUUUUUUUUAUUUUCUGUUGCUUUUCUUUGACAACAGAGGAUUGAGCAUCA: 2.93 ratio
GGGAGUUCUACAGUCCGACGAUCCACCAUGGCUGUGUUUGUCGUGCUCCUGGCGUUGGUGGCGGGUGUUUUGGGGAACGAGUUUAGUAUAUUAAAAUCACCAGGGUCUGUUGUUUUCCGAAAUGGAAAUUGGCCUAUACCAGGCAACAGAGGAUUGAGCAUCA: 6.79 ratio
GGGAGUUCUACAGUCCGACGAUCUCAAUAGAGAAUAUUUUGGAUAAUUUAGAAGAUAUGGAUUUUACUGCAUUUGGUGAUGACGAUGAGAUUCCUCAGGAACUGCUUUUAGGAAAACAUCAGCUUAAUGAACUUGGGAGUGAACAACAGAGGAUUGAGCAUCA: 18.5 ratio
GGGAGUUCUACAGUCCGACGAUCUUCAUUUUACGGUAUUCCCUGGAGUUUGGUCCUCCUGACCCUGCCCAAGUGCCUACCACAGCUGUGACAAUAACUUCUUCAGCUGAGCUGUUCAAAACCACAAUAUCCACCACGAGCAGUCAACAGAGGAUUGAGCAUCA: 0.139 ratio

Set 2
Target: RNA binding protein fox-1 homolog 2, RRM domain, GST-SBP tag (RBFOX2, Homo sapiens, UniProt O43251-10, residues 100-194)
Technique: RNA Bind-n-Seq
Molecule type: RNA
Medium: in vitro
Tested at: 365 nM
Notes: natural RNA segment, single round, ends assumed
Reference: no-protein control
Reading: higher = stronger binding
Measurement: RBNS enrichment (R)
Residues (chain): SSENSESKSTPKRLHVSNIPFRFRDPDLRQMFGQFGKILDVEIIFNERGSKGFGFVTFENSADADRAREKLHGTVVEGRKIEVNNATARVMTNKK
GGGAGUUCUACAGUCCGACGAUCCUGGGAGUGGUUAUGUUGUAUCCCCAUCUUGGCUGGCUUCAGUUUUUGCUGUAGCCCUAGAGCACUUUGUUUGUGGGAGGCUGGCCUCUUGCCUACCUCCUUGCAUGGACUGGAAUUCUCGGGUGCCAA: 1.73
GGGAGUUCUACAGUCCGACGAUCGUAAAAGGAGGAGCCUACCAAGUUAGGAGGGAGAAAAAAGAUUAACCAGCUAGUUAGAAAACCAUUUAUUUUUCUUUCUUCUUUCCCCACUUGUUAGAGGUAGGGCUAUGUGGAAUUCUCGGGUGCCAA: 0.647
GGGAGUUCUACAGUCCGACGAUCUAUAGUUUGGCUUCCUCUGUUAAGUCAUUCUACAAGGUGACUUGCCAUUUGAACUUUCGUAAGAGACCUCAGCAGUUAGACUGAGAAAAGUUAGAGUGCUGUAGUUAUGAUGGAAUUCUCGGGUGCCAA: 0.402
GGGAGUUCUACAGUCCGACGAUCCAGAGGAGAGAGACAUUCAGACAGAGGAAAGUCUCCCUGCCCCUCAUUCCUUCCAAGAUGAGAAAAACUUGCCGCCACCCCCCGACACUGAUGCCAGGGAGGUGGGAGGAUGGAAUUCUCGGGUGCCAA: 0.491
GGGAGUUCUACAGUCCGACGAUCAAAGCUGCCCAUUCUCAAGACUCAUCUGCCUAGGGAGGGUCACAGAGGCAGGAUGUAAGACACACUGUGUUGCAUUCUUGCACAAGUCAUGAAAAUGGAGCCAGAGAGCCUGGAAUUCUCGGGUGCCAA: 0.53
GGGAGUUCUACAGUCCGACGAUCUAAGGCCCUGUCAUUAAUUCCAUGUGUCAAUACUGCCCUGUAGUACACAGAGCAGACAAGAAAGAAGAGCCCUUGAAAACAAGGGAAUGAUUUUUGAGUCGUUAUCAAGCUGGAAUUCUCGGGUGCCAA: 0.256
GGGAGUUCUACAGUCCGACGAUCUAGUGGAGAAAUGGCAUUUUAAGAGGAGUCUCUUCUCAACUUACCUGAGAGUCGAAUUCUUCUCUUCCCUAACCAAUGAAGCUAAGUGGUUAUCCCAGAAACUUGUCUUCUGGAAUUCUCGGGUGCCAA: 0.327
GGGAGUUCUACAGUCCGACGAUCUGGCAGGCAGUCCCAUGCUCUGGGCCUUACCUCUAGUCCCCUGCCUGCUCACACCUGGUCCCCUAGCCUUUUCUCUUGGGCAGUGUAGUAGUAUGGGCGAGCCACCCUCAUGGAAUUCUCGGGUGCCAA: 0.408

Set 3
Target: Histone acetyltransferase KAT6A, both winged helices, GST fusion (KAT6A, Homo sapiens, UniProt Q92794, residues 1-181)
Technique: protein binding microarray
Molecule type: double-stranded DNA, one strand shown
Medium: in vitro
Tested at: not given
Notes: 8-mer, flanks averaged, mean of 2 arrays, mostly near background
Reference: not given
Reading: higher = stronger binding
Measurement: E-score
Target sequence (chain): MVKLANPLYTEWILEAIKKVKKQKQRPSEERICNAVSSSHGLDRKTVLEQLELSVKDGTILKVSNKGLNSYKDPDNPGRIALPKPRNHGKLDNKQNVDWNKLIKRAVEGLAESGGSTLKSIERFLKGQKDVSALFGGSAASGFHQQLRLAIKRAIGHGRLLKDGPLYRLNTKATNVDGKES
AGTGGGGA: -0.21
CAAACGTC: 0.119
GAGTGGAA: -0.12
AACACTCA: -0.0461
GCCCCCCC: -0.21
CCCGTATC: 0.197
ATCAGAAC: -0.0195
AGTGTTCA: 0.0231
CCCTTCGG: -0.0302
AGGGCCAC: -0.156
AGTGGTAA: -0.145
GCCGGCGC: 0.386
CTTGCCGC: 0.303
GCGACCCA: 0.0327
GCGCATGA: 0.217
CCACTCGG: -0.0767
ACAGATAG: -0.281
GCTAGCCC: -0.123
CTCGCCCC: -0.0629

Set 4
Target: Sal-like protein 4, full length isoform B (SALL4, Homo sapiens, UniProt Q9UJQ4-2, residues 1-616)
Technique: universal PBM
Molecule type: double-stranded DNA, one strand shown
Medium: in vitro
Tested at: not given
Notes: 8-mer, flanks averaged, mean of replicates
Reading: higher = stronger binding
Measurement: E-score
AGACCACC: -0.209
CCACTGTA: 0.1
GTCAGTAA: 0.0877
AGAGTGCT: -0.0348
AATTGCCT: 0.177
GAGCGATA: 0.0422
AGATTGTG: 0.0249
GGCCCGGA: -0.406
ATTCCGGC: -0.224
AGCGGGTA: -0.122
CTTAATCA: 0.208
CACTCCTA: 0.00988
ATTCTACA: 0.0981
AGGCCCTG: -0.279
CTTTAAAG: 0.13
CGAAAAGC: -0.0287
GAAATCAC: 0.163
CATCATAC: 0.317
ATCCTAGG: -0.13
GCGTCAGA: -0.1
ACCGATGG: -0.13
CTAGCCTC: -0.172
CCGTTCCC: -0.336
